Assay results pooled from the literature.
Lines come from different studies, so protocols differ. Values joined by “and” are separate records of one study, mostly repeats; a detail may differ. ± gives the spread as reported.

The fraction bound of `milbemycin oxime` is reported as 26% (CDR1 (Candida albicans, UniProt Q5ANA3); binding, microscale thermophoresis; 78.2 nM).
The binding score of `LIMQLMPF` is reported as 4.2% (HLA class I histocompatibility antigen, A alpha chain, allele A*02:01 (Homo sapiens, UniProt P04439); conformational ELISA; peptide; concentration not given; reference: positive control peptide, direction not given).
`methyl-β-cyclodextrin` — result for “glycine uptake rate”: 52.3 a.u. and 62 a.u. and 43 a.u. and 61.4 a.u. and 62.4 a.u. (SLC6A9 (Homo sapiens, UniProt P48067); transport activity, [3H]glycine uptake; 2.5 mg/mL, 1 min, with: glycine 300 µM; higher = more transport).
With `6-carboxyfluorescein` the uptake was 25.3% and 19.4% and 22.3% (SLCO2A1 (Homo sapiens, UniProt Q92959, C143A); compound uptake, substrate; HEK293F expressing SLCO2A1 C143A; 50 µM; reference: wild type).
With `CTIL` the Km was 5.6 ± 1 µM (Protein farnesyltransferase (Rattus norvegicus, UniProt Q02293+Q04631); substrate, dansyl fluorescence kinetics; peptide; with: 4 µM C15-Alk).
For `11-deoxycorticosterone`, “rate constant k-4” read 62.6 min⁻¹ (human CYP11B2; substrate, stopped-flow kinetics; 4-state closed model, with: adrenodoxin 40-fold excess).
`BzATP` has a normalized current of 0 (P2X purinoceptor 7 (P2rx7, Rattus norvegicus, UniProt Q64663, I214A/Q143A); ion current, agonist, two-electrode voltage clamp; Xenopus oocytes; 1.2 µM).
For `GSGAGKETSF`, “normalised SPR binding response” read 0 normalised RU (human MAGI1-2/6 PDZ construct (MBP fusion); surface plasmon resonance; peptide; concentration not given; higher = stronger binding).
For `QLMPFGSLL`, the binding score was 37.2% (HLA class I histocompatibility antigen, A alpha chain, allele A*24:02 (Homo sapiens, UniProt P04439); conformational ELISA; peptide; concentration not given; reference: positive control peptide, direction not given).
The binding intensity of `GSGAGKETYY` is reported as 0.00901 (human MAGI1-3/6 PDZ construct (MBP fusion); automated holdup; peptide, crude extract; concentration not given, corrected by standard peak, unit not given; reference: biotin control resin, higher = stronger binding).
For `QLIMQLMPF`, the binding score was 0.2% (HLA class I histocompatibility antigen, A alpha chain, allele A*01:01 (Homo sapiens, UniProt P04439); conformational ELISA; peptide; concentration not given; reference: positive control peptide, direction not given).

A few entries again:
The binding intensity of `GSGAGKETYY` is reported as 0.00901 (human MAGI1-3/6 PDZ construct (MBP fusion); automated holdup; peptide, crude extract; concentration not given, corrected by standard peak, unit not given; reference: biotin control resin, higher = stronger binding).
